Assay results of several laboratories.
A part holds a random share of what one study measured.
UniProt Q8NEB9, sequence (whole entry, looked up): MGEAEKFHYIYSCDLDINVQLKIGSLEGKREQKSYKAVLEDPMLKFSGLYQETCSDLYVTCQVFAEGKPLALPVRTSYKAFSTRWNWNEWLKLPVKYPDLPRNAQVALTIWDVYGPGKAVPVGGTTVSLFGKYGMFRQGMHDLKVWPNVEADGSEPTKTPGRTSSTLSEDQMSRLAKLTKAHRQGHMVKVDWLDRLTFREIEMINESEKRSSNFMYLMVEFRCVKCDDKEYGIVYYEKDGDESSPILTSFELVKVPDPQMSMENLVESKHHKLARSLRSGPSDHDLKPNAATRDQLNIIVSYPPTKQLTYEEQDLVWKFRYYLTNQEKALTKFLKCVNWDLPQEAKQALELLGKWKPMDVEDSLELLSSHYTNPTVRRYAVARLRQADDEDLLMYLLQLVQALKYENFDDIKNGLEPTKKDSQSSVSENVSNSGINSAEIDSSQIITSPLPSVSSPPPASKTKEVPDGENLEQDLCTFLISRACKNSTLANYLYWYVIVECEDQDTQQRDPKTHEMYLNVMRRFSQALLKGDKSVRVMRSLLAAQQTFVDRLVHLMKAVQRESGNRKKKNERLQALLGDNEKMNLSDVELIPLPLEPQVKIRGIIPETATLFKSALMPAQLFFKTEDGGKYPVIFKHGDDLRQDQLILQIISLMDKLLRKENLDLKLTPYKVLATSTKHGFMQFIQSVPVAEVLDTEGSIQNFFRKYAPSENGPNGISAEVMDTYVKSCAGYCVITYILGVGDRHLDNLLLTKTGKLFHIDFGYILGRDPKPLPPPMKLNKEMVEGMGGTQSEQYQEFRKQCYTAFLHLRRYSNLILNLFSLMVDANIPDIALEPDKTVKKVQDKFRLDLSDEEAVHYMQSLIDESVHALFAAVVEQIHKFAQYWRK
UniProt O14965, sequence (whole entry, looked up): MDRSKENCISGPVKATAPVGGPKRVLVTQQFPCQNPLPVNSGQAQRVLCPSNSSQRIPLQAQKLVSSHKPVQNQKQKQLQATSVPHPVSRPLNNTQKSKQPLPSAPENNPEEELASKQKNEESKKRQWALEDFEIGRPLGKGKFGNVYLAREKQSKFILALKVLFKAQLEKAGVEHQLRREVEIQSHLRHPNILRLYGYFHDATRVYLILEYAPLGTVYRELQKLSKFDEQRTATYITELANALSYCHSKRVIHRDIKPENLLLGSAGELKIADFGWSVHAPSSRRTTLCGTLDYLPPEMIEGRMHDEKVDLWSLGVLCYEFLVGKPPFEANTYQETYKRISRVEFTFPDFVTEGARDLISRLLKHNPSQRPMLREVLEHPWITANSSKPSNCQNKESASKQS

Set 1 — read-out: enzyme activity; mode: inhibitor; tested at: 0.5 µM; baseline: control; endpoint: remaining activity
Target: Calcium/calmodulin-dependent protein kinase type 1D (CAMK1D, Homo sapiens, UniProt Q8IU85)
UniProt Q8IU85, sequence (whole entry, looked up): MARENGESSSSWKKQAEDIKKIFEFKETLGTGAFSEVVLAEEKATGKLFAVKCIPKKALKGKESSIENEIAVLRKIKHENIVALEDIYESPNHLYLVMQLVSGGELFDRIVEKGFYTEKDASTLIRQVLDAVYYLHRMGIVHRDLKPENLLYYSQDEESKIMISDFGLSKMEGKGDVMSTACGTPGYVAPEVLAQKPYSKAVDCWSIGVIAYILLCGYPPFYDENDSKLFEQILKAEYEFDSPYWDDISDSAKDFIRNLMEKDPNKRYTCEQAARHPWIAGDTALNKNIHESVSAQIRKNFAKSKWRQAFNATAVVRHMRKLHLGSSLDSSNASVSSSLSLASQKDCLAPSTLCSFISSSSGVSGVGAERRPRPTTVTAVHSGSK
c1ccc(-c2n[nH]c3c2oc2ccccc23)cc1: 92.9%
O=C1Nc2ccc(Br)cc2/C1=C/c1cc2c([nH]1)CCCC2: 96.8%
O=C1Cc2c([nH]c3ccc(Br)cc23)-c2ccccc2N1: 112%
O=C1Nc2ccccc2/C1=C\c1c(Cl)[nH]c2ccccc12: 102%
COc1cc2c(Nc3ccc(Br)cc3F)ncnc2cc1OCC1CCN(C)CC1: 90.6%
O=C1c2ccccc2-c2nc3nnnn3nc21: 93.9%
CCCCc1c(-c2ccc(O)cc2)[nH]c2nccnc12: 96.9%
COc1ccc2c(c1)c(C1=C(c3c[nH]c4ccccc34)C(=O)NC1=O)cn2CCCN(C)C: 73.3%
O=C1NC(=O)c2c1c1c3ccccc3[nH]c1c1[nH]c3cc(Br)ccc3c21: 92.2%
CCCCc1c(-c2ccc(OC)cc2)[nH]c2nccnc12: 97.9%
O=Nc1c(-c2c(O)[nH]c3ccccc23)[nH]c2ccccc12: 92.3%
CN1CCN(c2ccc3nc(-c4c(N)c5c(F)cccc5[nH]c4=O)[nH]c3c2)CC1: 103%
CC(C)(C)c1nc2c3cc[nH]c(=O)c3c3cc(F)ccc3c2[nH]1: 81.6%
Clc1ccc(Nc2nnc(Cc3ccncc3)c3ccccc23)cc1: 108%
C[C@@H](N)[C@H]1CC[C@H](C(=O)Nc2ccncc2)CC1: 93.7%

Set 2 — method: two-hybrid; baseline: out of 4 tests; reading: higher = firmer interaction; endpoint: positive tests
Partner: ARF7 1030-1164 (Arabidopsis thaliana, UniProt P93022)
B1: IAA29 (Arabidopsis thaliana, UniProt Q93WC4); chain MELDLGLSLSPHKSSKLGFNFDLNKHCAIEGAASCLGTEKLRFEATFGLGNVEENCYMPKQRLFALNGQPNEEDEDPLESESSIVYDDEEENSEVVGWPPVKTCMIKYGSYHHRHIRNHHHCPYHHRGRRITAMNNNISNPTTATVGSSSSSSISSRSSMYVKVKMDGVAIARKVDIKLFNSYESLTNSLITMFTEYEDCDREDTNYTFTFQGKEGDWLLRGDVTWKIFAESVHRISIIRDRPCAYTRCLF
B2: IAA34 (Arabidopsis thaliana, UniProt Q9C5X0); chain MYCSDPPHPLHLVASDKQQKDHKLILSWKKPTMDSDPLGVFPNSPKYHPYYSQTTEFGGVIDLGLSLRTIQHEIYHSSGQRYCSNEGYRRKWGYVKVTMDGLVVGRKVCVLDHGSYSTLAHQLEDMFGMQSVSGLRLFQMESEFCLVYRDEEGLWRNAGDVPWNEFIESVERLRITRRNDAVLPF
B3: IAA33 (Arabidopsis thaliana, UniProt Q9FKM7); chain MNSFEPQSQDSLQRRFHQDNSTTQQPRDTTTPFIPKPASKNHNNSNSSSGAAGRSFQGFGLNVEDDLVSSVVPPVTVVLEGRSICQRISLDKHGSYQSLASALRQMFVDGADSTDDLDLSNAIPGHLIAYEDMENDLLLAGDLTWKDFVRVAKRIRILPVKGNTRQVKRNE
Residues (chain): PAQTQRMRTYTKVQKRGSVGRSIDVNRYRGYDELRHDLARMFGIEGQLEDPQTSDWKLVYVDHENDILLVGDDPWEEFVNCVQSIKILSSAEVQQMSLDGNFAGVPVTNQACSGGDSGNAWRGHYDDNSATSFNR
B1 (IAA29): 4
B2 (IAA34): 2
B3 (IAA33): 2

Set 3 — method: universal PBM; form: double-stranded DNA, one strand shown; matrix: in vitro; tested at: not given; reading: higher = stronger binding; endpoint: E-score
Target: Sal-like protein 4, full length isoform B (SALL4, Homo sapiens, UniProt Q9UJQ4-2, residues 1-616)
Setting: 8-mer, flanks averaged, mean of replicates
Residues (chain): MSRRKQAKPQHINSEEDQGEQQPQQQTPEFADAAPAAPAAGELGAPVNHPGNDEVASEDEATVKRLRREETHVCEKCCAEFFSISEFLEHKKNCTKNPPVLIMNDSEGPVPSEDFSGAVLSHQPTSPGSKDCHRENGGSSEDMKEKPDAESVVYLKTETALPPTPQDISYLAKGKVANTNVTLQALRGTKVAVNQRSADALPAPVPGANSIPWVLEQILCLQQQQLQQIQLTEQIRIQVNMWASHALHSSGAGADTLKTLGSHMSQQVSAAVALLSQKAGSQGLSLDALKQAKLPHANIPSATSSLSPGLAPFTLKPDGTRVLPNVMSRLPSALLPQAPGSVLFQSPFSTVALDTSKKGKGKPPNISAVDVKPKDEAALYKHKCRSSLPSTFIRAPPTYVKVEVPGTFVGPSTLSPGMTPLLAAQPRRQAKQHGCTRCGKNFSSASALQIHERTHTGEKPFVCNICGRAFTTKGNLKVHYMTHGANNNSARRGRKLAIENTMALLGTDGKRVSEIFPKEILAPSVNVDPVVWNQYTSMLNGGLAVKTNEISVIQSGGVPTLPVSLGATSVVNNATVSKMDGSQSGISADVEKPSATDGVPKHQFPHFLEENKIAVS
GGGTTCCA: -0.272
AAATGACT: 0.225
AAGGGCGT: -0.0874
GTTTGTCA: 0.0518
ATACAGTG: 0.174
TAGTGAGA: 0.0392
AGCTGTGG: -0.193
ACACTGGG: -0.121

Set 4 — read-out: cell-free assay; method: competition with immobilised ligand; tested at: 1 µM; endpoint: remaining binding
SMILES: CN(C)c1ncnc(-c2ccc3nc(Nc4cc(CN5CCN(C(=O)CC(F)(F)F)CC5)ccn4)[nH]c3c2)c1Cl
PIK3C3 (Homo sapiens, UniProt Q8NEB9): 100%
EGFR (Homo sapiens, UniProt P00533, A750P/del747-749): 100%
Aurora kinase A (AURKA, Homo sapiens, UniProt O14965): 84%
CDK2 (Homo sapiens, UniProt P24941): 100%

Repeated from above (set 1):
CCCCc1c(-c2ccc(O)cc2)[nH]c2nccnc12: 96.9%
COc1ccc2c(c1)c(C1=C(c3c[nH]c4ccccc34)C(=O)NC1=O)cn2CCCN(C)C: 73.3%
